# Assay results of several laboratories.
# Every numbered part comes from another study and shows a few of its results, in no order.

# Study 1 — technique: RNA Bind-n-Seq; form: RNA; sample: in vitro; tested at: 200 nM; setting: whole 134-nt RNA, ends assumed; with: 150 mM LiCl; reference: input library; direction: higher = stronger binding; all molecules: 7-deaza-guanosine replaces G
# Target: Fragile X messenger ribonucleoprotein 1, C-terminal low-complexity region (Fmr1, Mus musculus, UniProt P35922)
Sequence,log2 enrichment
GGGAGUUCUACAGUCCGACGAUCCUCAAGUCCUGUGCUACACAUCGUAUGUACCGAAUCGGGAAGGGGAAGGAAGGGAAAGUAUUAUGUUACGCCGUUCGGAUCUGCACUUCCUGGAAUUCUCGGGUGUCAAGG,-0.781
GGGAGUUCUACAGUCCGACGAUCCCUCAAGUCCUGUGCUACACAUCGUAUGUACCGAAUCGGAAAAAGGUGGAGGAAAGUAUUAUGUUACGCCGUUCGGAUCUGCACUUCCAGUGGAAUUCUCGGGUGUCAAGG,-0.0643
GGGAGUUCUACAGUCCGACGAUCUCAAGUCCUGUGCUACACAUCGUAUGUACCGAAUCGGGAAAGGGAAAGGAAAGGGAAAGUAUUAUGUUACGCCGUUCGGAUCUGCACUUCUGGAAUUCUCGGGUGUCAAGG,-0.959
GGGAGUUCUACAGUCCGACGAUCGCAGGAAGUAAAAACAAAUGGAAAUGCUUCGGAUAGUGGCAAAAGUGGGGGUUGCUAAGGAAAGGGUGGGAUGGGAGUGGGUAAAGAGUUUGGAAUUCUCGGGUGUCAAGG,1.32
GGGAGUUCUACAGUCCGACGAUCUUAGGGCCAAUCUUCGUCAAUAUGGUUUAGAGAAGUAUUACCUUGAUGUCCUGGUUUCAGAUGCAUCUAAACCUUCCUGGAGGAAGGGCAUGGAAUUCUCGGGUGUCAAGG,-1.45
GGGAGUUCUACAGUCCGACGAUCACCAUGUAGGUGGGCAUCUUUGGGAAGUGGGGCAAGGGGGGGAUAGGGAGGGGGGUAACACUUUGGGAACAGGUGGUCCCAGGUCGUUUCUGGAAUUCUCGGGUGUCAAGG,1.35
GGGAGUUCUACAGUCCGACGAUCUAACUGUAGAGGAGGAUCUGAUGGAUAUGGCAGUGGACGUGGAUUUGGGGAUGGCUAUAAUGGGUAUGGAGGAGGACCUGGAGGUGGCAAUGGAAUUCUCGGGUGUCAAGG,1.13
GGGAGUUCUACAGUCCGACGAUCUCAAGUCCUGUGCUACACAUCGUAUGUACCGAAUCGGUUUUUGGAAAGGUUUGGAAAGUAUUAUGUUACGCCGUUCGGAUCUGCACUUCCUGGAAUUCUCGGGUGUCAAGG,-2.12
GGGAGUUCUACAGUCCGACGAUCCAAGUCCUGUGCUACACAUCGUAUGUACCGAAUCGGUUUGGGUUUGGGGUUUGGGGAAAGUAUUAUGUUACGCCGUUCGGAUCUGCACUUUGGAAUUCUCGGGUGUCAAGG,-1.56
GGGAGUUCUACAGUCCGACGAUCGUCCUGUGCUACACAUCGUAUGUACCGAAUCGGGCCCCCCGGCCCCCCGGGCCCCCCGGAAAGUAUUAUGUUACGCCGUUCGGAUCUGCAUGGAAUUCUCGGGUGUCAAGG,0.656
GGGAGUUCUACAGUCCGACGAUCGUCCUGUGCUACACAUCGUAUGUACCGAAUCGGUUUUUUUGGUUUUUUUGGAAAAAGGAAAGUAUUAUGUUACGCCGUUCGGAUCUGCACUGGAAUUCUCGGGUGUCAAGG,-2.08

# Study 2 — technique: RNA Bind-n-Seq; form: RNA; sample: in vitro; tested at: 365 nM; reference: no-protein control; direction: higher = stronger binding
# Target: RNA binding protein fox-1 homolog 2, RRM domain, GST-SBP tag (RBFOX2, Homo sapiens, UniProt O43251-10, residues 100-194)
# Setting: natural RNA segment, single round, ends assumed
# Residues (chain): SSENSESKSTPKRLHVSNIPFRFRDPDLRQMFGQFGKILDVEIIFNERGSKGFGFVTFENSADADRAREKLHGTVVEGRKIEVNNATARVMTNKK
Sequence,RBNS enrichment (R)
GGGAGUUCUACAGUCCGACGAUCGCCAGUCUCUGAGGACGCUGCCACCCUAGAGCACAUGCAUGCCCAGCCAUUCUUCCUGCUUCUGGCCUCGGAGCUGCUUGUCUCCAGAUGCCCUCCUGAAACCAUGAGAAUGGAAUUCUCGGGUGCCAA,20.6
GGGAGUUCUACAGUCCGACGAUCAUUUAUAAUUCUACAGUACCUAUUAAUGCUGUACUUCCAGGAUGCUCAUGCCCAUUUUAUUCUUAUAUGUAUGCUACAUACAGUAUGUUGGUUUCCCGAAUAGUGUGCAUUGGAAUUCUCGGGUGCCAA,0.618
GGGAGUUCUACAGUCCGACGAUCGACCAUUCACACUGAUUUUGUCUGGACAGUCUGGCCGCAGGUUAUUCAUAGAUUAUUCAGCCUUUGCAGGACUUGGAUUCAGGGUUUUACUCAGUCCCUUUACCUUAGGUUGGAAUUCUCGGGUGCCAA,0.31
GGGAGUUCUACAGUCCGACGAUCCACCCCAUCCUCAAUAACAACCAUCGUAAGAAUGACUGAACCAUUACUCCAGCUGCCUCCCAGAUUAAUGCAUAAAGCCAAGGAACUACCCCGCUCCCUGCGCUAUAGGGUGGAAUUCUCGGGUGCCAA,0.858
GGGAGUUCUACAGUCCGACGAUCCGCCAUGAAAGUUGUCUCUGUGCCAUCUCUCCGGUCCUUGAGGAGAGCCCAGAAAGAUUUUAGGACCCAGGAGGUGCUUUUCCUCCAGCUGUUGCCAGUGUCCUUCUGAGUGGAAUUCUCGGGUGCCAA,0.17
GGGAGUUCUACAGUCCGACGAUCUGUCAGCUUCCUGUCUGGCUCAGUAUAGCCUCACUCUGCCGUUAUGCAAAUGGAGAUCAAAGUAAUUCUGACUGUCCAGGAGCUAUCUCACUUUCUGCUGUGUGGGCGGCUGGAAUUCUCGGGUGCCAA,0.419
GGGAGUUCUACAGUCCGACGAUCGGAAGAGUGGCCAACCCCAGCAGGUCCUAAGGUGGAGGUCUAGGUGUCUGAAGUGCCUUGGGGGCACCCUCAUUUUGUUUCCAUUCCAACAACGAGAACAGAGAUGUUCUUGGAAUUCUCGGGUGCCAA,0.572
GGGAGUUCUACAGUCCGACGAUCCAGCAUUUUCCUGCCAUGCAAAGGAUUAAAACUUAGUUUACACUAUGUGGUUACAAAUAUAUGUCAAUGUACAUUUUGAACAUAUUUAUGUGCUAUGGAAGGAAAUGCUGUGGAAUUCUCGGGUGCCAA,0.339
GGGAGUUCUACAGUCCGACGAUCAAAUUAGGACAUUUAGUAGUGAGGCACUGGUACCUUCUCCCUGCUCCUGUUAUAGAGGAGGCUACGUAGACCAAAAUGAGAAAAGGAAUGUGGCCACAGAAUGUAACCGUUGGAAUUCUCGGGUGCCAA,1.43
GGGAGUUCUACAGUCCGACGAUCAAGAUUUGUAGUCUGGAAUCAUGUAGUCUCAUAUGCUGCACUUAUUUUUAUAUUUUUCAAUGCACUUAAUUAUUGUUUUUAUAUAAUUAUUUGUACUAACUCAGCAUGUAUGGAAUUCUCGGGUGCCAA,1.46
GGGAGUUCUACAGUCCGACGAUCCCAGUUGCCAAACAGACCCCCCACCCCCUGGAUUUUCCUUCUCCCUCCAUCCCUUGACGGUUCUGGCCUUCCCAAACUGCUUUUGAUCUUUUGAUUCCUCUUGGGCUGAAUGGAAUUCUCGGGUGCCAA,0.561
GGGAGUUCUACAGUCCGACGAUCAUUAGGCAAUACCCUUGUUAAUUGCCCUUUGGCAACUAACUUAACCAUGUGCUUCCCACACAGUACAUCAGGAAAACUUACAGGGCAAUAUUUUUAACUUGGGGCAGGAAUGGAAUUCUCGGGUGCCAA,0.409

# Study 3 — technique: RNA Bind-n-Seq; form: RNA; sample: in vitro; tested at: 100 nM; reference: input RNA pool; direction: higher = stronger binding
# Target: RING finger protein unkempt homolog, zinc fingers 1-6, SBP tag (UNK, Homo sapiens, UniProt Q9C0B0, residues 30-357)
# Chain of UniProt Q9C0B0 (30-357, looked up): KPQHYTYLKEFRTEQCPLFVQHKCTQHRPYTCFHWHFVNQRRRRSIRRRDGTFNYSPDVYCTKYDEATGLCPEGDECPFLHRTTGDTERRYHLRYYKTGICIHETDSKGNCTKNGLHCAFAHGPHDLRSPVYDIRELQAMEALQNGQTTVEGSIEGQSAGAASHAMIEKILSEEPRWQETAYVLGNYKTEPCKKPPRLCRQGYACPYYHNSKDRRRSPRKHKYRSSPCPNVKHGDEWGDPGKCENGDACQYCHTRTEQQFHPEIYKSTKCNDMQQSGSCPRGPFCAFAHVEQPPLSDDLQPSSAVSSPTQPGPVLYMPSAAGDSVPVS
# Setting: RNA with constant flanks, vertebrate orthologous sites, ends assumed
Sequence,bound/input enrichment [ratio]
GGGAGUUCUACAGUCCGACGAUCCUGAAGCUUUGUGUUUGGCUGCACCUGCAUAAGCUGCUACAAAUAGAAUAAAGAAUUUCAUAGCCUGUAUCUAUCGUUUAGAUGCAUGGAAAAAUGGGCUUUGCACACAAUGGGUUUGGACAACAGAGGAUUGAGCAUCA,2.57
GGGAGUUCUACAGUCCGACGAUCCAGCUGAUUCACUCAUUGGGAGAGCUGCACAUAUAGCUGUUCUUGAUUCGGAAAUAUUUUUAGAGAAAUUCUUUCUGGUUGCUGCCCUCAAAUAUUUCCAAUAGUGUAAAAGCAUUGUUACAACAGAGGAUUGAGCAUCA,0.816
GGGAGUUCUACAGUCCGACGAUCUAUUCAUUUGAUUAAAAUGAUUUAGGUAAGAAACUAUUACUGUUUAUGUUUGCUUUCAGUUUGUCUUAUUUUUCAUUCAUUUUGCAAAUAUCAGUUGAAUGUGGUUUUUUAACAGAAUAGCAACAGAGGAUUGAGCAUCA,0.319
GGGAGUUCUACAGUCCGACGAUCAUUCAAACCUGUGGUACCAUGGCCUCAUGUUGAAGGAGUAGAAGUGGACUUAGAGUCUAUUAGAAGAAAAAACAAGGCCAAAAAUGAACAGGAGCGUCAUGCUGGAGGAGAUUCCCAAAACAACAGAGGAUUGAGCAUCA,0.398
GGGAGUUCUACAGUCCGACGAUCGGACUCUCCAUGGGGGCGGGGGCCCCGGCCCUGCCCCGGGACCCCCUGGUCAGGCCAUUUUAGCUCUACUCAUUUUUUUAACCAGUGUCCUUACCCUGUACAUACGCUUGAGAUUUGGAACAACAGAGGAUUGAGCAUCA,1.93
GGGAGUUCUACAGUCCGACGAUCAAUGUUUUCUUAUUUAUGAGGAUAGUUUUGUGCUAAGAACUGUGUGAAAGAUUAAAAACGUAGUGAGUUGAUUGUGUCUUUACUUUCAUUAUUGAAAAUAAAUAUAACUUUGUAUUUGAGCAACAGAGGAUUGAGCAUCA,0.397
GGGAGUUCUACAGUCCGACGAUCGGAAAGCUACAGACCAGACUCUGAAAGUAGAAGCACAGGGUCCUGGUUGUCAUCAUCUUUGAGGAACAGAUGUACGCCCCUCUUCUCCAGAAGACGGAGAGAAGGAAGAGAUGAGUCUGCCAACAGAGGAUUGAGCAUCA,0.293
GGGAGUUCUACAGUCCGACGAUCAUUCAAACCUGUGGUACCAUGGCCUCAUGUUGAAGGAGUAGAAGUGGAUUUAGAGUCUAUUAGAAGAAAAAACAAGGCCAAAAAUGAACAAGAACACCAUGCUGGCGGAGAUUCCCAGAACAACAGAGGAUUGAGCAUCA,0.41
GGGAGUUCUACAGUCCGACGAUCAUGCACAUGCCACCAUCACCGAAAACAAACUCACUUCUCCAACUCCAUCCAGAGCUGAUUUAGUGUUUCCCAUUCCCCACCUUUCCUACUACUUUCAGUGAUCAAAUAUCCUAAGUUCUCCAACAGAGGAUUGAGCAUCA,1.89
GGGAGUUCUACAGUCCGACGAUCGGGGCCACAGCUAGAUAGGUUCCUCACUACAGUUUUAAGGGGGAAAAAAAAAGACCCAAAUAGAUUCCCUAUACAUCUGCCUGAAUUGGUCUGAGUUGGUUUCCUACCCUUUGUAUAUACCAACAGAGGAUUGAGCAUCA,0.404
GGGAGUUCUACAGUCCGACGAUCUGUCUGCCUCAUUCUAAGAUUUACACAGUAGACCAUUUGUCAUCCAUGCUGUCCCACAAAUAGUUUUUUGUUUACGAUUUAUGACAGGUUUAUGUUACUUCUAUUUGAAUUUCUAUAUUUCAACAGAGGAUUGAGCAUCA,1.2

# Study 4 — technique: protein binding microarray; form: double-stranded DNA, one strand shown; sample: in vitro; tested at: not given; reference: not given; direction: higher = stronger binding
# Target: Histone acetyltransferase KAT6A, winged helix 1, GST fusion (KAT6A, Homo sapiens, UniProt Q92794, residues 1-85)
# Setting: 8-mer, flanks averaged, mean of 2 arrays, mostly near background
# Residues (chain): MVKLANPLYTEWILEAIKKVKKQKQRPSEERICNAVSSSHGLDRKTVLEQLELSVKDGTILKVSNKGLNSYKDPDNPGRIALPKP
Sequence,E-score
AATCGGTC,0.0819
CGGCAACG,0.386
AACGCAAC,-0.086
AGTCGCTA,-0.0359
GATCAATC,-0.000465
CTGGGCGA,0.0543
AATGGGGG,-0.134
ACTATAAA,-0.141
ACTAATAC,0.0106
TGTATCAA,-0.0886
GATGGGAA,-0.127
CTCTCTGA,-0.19
CTAAAGTC,-0.203
CACGATAC,-0.101
AATGAAAC,-0.215
CGCTAAAG,0.227
AATCGCGC,0.359
CGCCGGTC,0.429
ATGCCCAG,-0.225
GGGTCGGA,0.163
CTGGAGTC,-0.268
TGCACACA,-0.197
AGTTGTAC,0.0942
AATTAGAT,-0.0754
ACTGGCAC,-0.211

# Excerpt of the above (study 1):
Sequence,log2 enrichment
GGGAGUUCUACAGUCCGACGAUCGCAGGAAGUAAAAACAAAUGGAAAUGCUUCGGAUAGUGGCAAAAGUGGGGGUUGCUAAGGAAAGGGUGGGAUGGGAGUGGGUAAAGAGUUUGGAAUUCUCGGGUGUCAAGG,1.32
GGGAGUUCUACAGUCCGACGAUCACCAUGUAGGUGGGCAUCUUUGGGAAGUGGGGCAAGGGGGGGAUAGGGAGGGGGGUAACACUUUGGGAACAGGUGGUCCCAGGUCGUUUCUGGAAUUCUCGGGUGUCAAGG,1.35
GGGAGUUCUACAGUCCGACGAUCUAACUGUAGAGGAGGAUCUGAUGGAUAUGGCAGUGGACGUGGAUUUGGGGAUGGCUAUAAUGGGUAUGGAGGAGGACCUGGAGGUGGCAAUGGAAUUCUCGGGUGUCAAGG,1.13
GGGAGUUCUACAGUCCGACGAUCUCAAGUCCUGUGCUACACAUCGUAUGUACCGAAUCGGUUUUUGGAAAGGUUUGGAAAGUAUUAUGUUACGCCGUUCGGAUCUGCACUUCCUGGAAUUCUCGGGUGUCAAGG,-2.12
